# Results collected from several papers.
# Each numbered part is a random draw from the data of one study; scales do not carry over between parts.

# Study 1
# Target: Ras GTPase-activating protein-binding protein 1, C-terminal RGG region (G3BP1, Homo sapiens, UniProt Q13283)
# Sequence of UniProt Q13283 (whole entry, looked up): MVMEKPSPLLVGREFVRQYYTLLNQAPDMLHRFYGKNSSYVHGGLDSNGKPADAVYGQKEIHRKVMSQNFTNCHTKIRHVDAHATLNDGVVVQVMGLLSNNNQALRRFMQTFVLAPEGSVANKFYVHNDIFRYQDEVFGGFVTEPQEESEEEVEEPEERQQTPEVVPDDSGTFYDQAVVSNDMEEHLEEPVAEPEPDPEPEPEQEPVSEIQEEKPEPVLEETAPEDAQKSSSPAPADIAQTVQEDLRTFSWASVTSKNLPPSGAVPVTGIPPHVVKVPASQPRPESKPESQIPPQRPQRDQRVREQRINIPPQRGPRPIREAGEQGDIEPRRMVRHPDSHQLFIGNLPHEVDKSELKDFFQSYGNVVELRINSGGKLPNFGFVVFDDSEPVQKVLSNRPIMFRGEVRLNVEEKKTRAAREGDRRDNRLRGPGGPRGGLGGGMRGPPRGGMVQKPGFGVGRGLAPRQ
# Method: RNA Bind-n-Seq
# Molecule type: RNA
# Sample: in vitro
# Tested at: 1 µM
# Notes: whole 134-nt RNA, ends assumed
# Together with: 150 mM KCl
# Reference: input library
# Reading: higher = stronger binding
Strand,log2 enrichment
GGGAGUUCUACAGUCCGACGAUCCACAGACAACACGCACCCACACAGACACAGAGGGAAGGGGUUGGGAUGGGGACAGGGUGCACAGCUGGGCGGGGUAGGACCCCAGCCCCUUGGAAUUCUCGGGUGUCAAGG,-0.377
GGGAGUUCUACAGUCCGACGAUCCUGUGCUACACAUCGUAUGUACCGAAUCGGGAAAAAAAGGGGAAAAAAAGGGAAAAAAAGGGAAAGUAUUAUGUUACGCCGUUCGGAUCUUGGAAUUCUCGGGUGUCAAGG,-1.18
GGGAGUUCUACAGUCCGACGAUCUUCCUCAAGUCCUGUGCUACACAUCGUAUGUACCGAAUCGGUGGUGGGUGGAAAGUAUUAUGUUACGCCGUUCGGAUCUGCACUUCCAGCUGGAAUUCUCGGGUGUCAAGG,-0.362
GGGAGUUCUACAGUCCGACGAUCUUAGGGAUGUGGCCAUAGAAUUCUCUCAGGAGGAGUGGAAAUGCCUGGACCCUGCUCAGAGGAUCUUAUACAGGGACGUGAUGUUGGAGAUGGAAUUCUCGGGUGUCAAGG,0.318
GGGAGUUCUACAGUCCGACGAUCUAACUUUAGAGGAGGAUCUGAUGGAUAUGGCAGUGGACGUGGAUUUGGGGAUGGCUAUAAUGGGUAUGGAGGAGGACCUGGAGGCGGCAAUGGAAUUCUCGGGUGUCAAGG,-0.804
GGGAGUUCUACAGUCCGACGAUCACCAUGCAGGUGGGCAUCUUUGGGAAGUGGGGCAAGGGGGGGAUAGGGAGGGGGUUAACACUUUGGGAACAGGUGGUCCCAGGUCGUUUCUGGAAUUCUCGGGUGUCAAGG,1.97
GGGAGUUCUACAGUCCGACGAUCUCCUGUGCUACACAUCGUAUGUACCGAAUCGGUUUUUUGGGUUUUUUGGGUUUUUUGGGGAAAGUAUUAUGUUACGCCGUUCGGAUCUGCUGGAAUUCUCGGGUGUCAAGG,-0.907
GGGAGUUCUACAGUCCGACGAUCCACAGACACCACGCACCCACACAGACACAGAGGGAAGGGGUUGGGAUGGGGACAGGGUGCACAGCAGGGCGGGGUAGGACCCCAGCCCCUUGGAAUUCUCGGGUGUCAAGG,-0.384
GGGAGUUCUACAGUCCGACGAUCUGGGAGGUGGAUUUUGUUUAUUUUUUUAGCUCAUUUCCAGGGGUGGGAAUUUUUUUUUAAUAUGUGUCAUGGAUAAAGUUGUUUUUGAAAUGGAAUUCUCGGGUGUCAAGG,3.63
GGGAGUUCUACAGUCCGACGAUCUGGCCCUGGUGGCAUGCGGGGAGGAAGAGGUGGCCCCAUGGAUCGUGGUGGUCCCGGUGGAAUGUUCAGAGGUGGCCGUGGUGGAGACAGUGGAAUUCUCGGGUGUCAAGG,2.5

# Study 2
# Target: RING finger protein unkempt homolog, zinc fingers 1-6, GST-SBP tag (UNK, Homo sapiens, UniProt Q9C0B0, residues 30-357)
# Sequence of UniProt Q9C0B0 (30-357, looked up): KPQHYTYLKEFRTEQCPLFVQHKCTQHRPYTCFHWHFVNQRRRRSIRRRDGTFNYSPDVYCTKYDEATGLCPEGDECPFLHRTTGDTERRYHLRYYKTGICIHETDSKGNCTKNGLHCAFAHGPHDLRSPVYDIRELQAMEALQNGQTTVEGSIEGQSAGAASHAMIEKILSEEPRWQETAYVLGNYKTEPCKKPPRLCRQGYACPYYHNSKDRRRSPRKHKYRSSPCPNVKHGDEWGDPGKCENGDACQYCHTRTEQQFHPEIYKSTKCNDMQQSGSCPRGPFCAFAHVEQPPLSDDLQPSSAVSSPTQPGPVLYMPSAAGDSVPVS
# Method: RNA Bind-n-Seq
# Molecule type: RNA
# Sample: in vitro
# Tested at: not given
# Notes: RNA with constant flanks, human-mouse chimeric sites, ends assumed
# Reference: input RNA pool
# Reading: higher = stronger binding
Strand,bound/input enrichment
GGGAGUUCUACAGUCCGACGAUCAGCACAACCCCAGCAAAGCUCAGGAACCCUUGUACAAGUGAACAGAACUGCACCAGCCCAUUUAGCUACAAAAAUGUGCUUAGUCUUACUGACAGAGGAGAGUUUUUCAAUGAACUUGUUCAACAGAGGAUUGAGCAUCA,1.31 ratio
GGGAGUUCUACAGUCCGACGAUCGGGACUGAUUCAUCCCAAGGACAGGCCACCCCAUUUGAUGCCUGGACUGAUGACAGUAUGGAAGGGCCUAGUCAAAAUUUUGAAGCUGAGUCAAUUCAGGAUGCCAUGCAUAUGGCAGAGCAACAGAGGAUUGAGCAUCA,0.247 ratio
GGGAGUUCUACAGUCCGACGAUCCAGCGCCGAGGCCGCGGUUUCCCCCUGGGCCUCCCCAGCCGCCGCCAUGGGCAUCAAGUUUUUAGAAGUUAUCAAACCAUUCUGUGCAGUUCUACCAGAAAUUCAGAAACCGGAAAGGAACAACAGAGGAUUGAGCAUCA,0.852 ratio
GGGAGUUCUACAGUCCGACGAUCUGUGCAUAUGAUGCUUGGAGAUGGUUUUGCAAAAGCAGAAAUCGCUGCAAGGUCAUUACAAUAGAUAAAAGUGGUAUUUUAAACCUUUGAAAUAAAUGGAUGUAACUGUACCUUGGUACACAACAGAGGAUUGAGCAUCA,0.42 ratio
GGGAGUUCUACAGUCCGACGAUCACUCUUGACUCUUUCCAUCCUCUUCCUUUCCCUCUUGAUAUUCAAGGCCAUGAAUCCCAAAAUAACAAUCUAUCUUACUAGCACCCAAACAGAGGUGGAAUAAAUCCACCCCAGUGUCUCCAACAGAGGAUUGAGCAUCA,0.981 ratio
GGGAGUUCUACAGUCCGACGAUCCCUGCUCAGAUCACCAUGAAAGUAAUCCAAGGCCUAUAUAGUGGGGUCACCACAGUGGAACUAGAUACCCUGGCUGCUGAGACAGCCGCAACCUUGACCACGAAGCACCCUGACUAUGCCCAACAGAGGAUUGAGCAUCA,0.217 ratio
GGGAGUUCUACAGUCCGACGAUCCAGCUGCAGACAGAGAAGGAUGAGAAGGAGCUGUAUAAGGUACAUUUGAAGAAUACAGAAAUAGAAAAUACGAAGCUUGUGUCAGAGGUCCAGACUUUAAAGAAUUUAGAUGGAAACAAACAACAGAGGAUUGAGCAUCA,3.71 ratio
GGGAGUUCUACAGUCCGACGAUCAACAGAUUGUCUUUAAGCAUUCCAAGCGAGAAUGCUGGGGUGAUCAUAAUUACCCACGUGCCUUCUGACUGAGCUUUAAUGCUGUUCCAUGUUACAUUGAUGUUCUUCUCCAGAAUUGUUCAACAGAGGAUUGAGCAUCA,0.111 ratio

# Study 3
# Target: Histone acetyltransferase KAT6A, both winged helices, GST fusion (KAT6A, Homo sapiens, UniProt Q92794, residues 1-181)
# Method: protein binding microarray
# Molecule type: double-stranded DNA, one strand shown
# Sample: in vitro
# Tested at: not given
# Notes: 8-mer, flanks averaged, mean of 2 arrays, mostly near background
# Reference: not given
# Reading: higher = stronger binding
# Residues (chain): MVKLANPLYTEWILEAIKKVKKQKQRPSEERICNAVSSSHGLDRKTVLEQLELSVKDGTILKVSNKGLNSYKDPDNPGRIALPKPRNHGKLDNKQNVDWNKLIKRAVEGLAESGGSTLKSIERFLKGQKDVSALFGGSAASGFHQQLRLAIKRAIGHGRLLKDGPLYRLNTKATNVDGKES
Strand,E-score
TATATGGA,-0.205
AGTAAACA,-0.181
AGGACTGG,-0.194
TCACACGA,-0.0846
TCGTGTCA,-0.0178
CAACCAAA,-0.0294
ATAAGGTC,-0.153
AAGTGCGC,0.237
AGGCCCAC,-0.164
ACTTATTA,-0.192
AAATAAGA,-0.0504
GAGACTTA,-0.168
ATCTCTGA,-0.193
GATGCTCA,-0.0285
ATCGGTCA,0.0732
AGCAGAGA,-0.172
CCATTTAG,-0.153
AACCTGAG,-0.113
ATCGTTGA,-0.173
CCTCAGTC,-0.205
CTTCTGTC,-0.00308
AACATGTG,-0.00439

# Study 4
# Target: RNA binding protein fox-1 homolog 2, RRM domain, GST-SBP tag (RBFOX2, Homo sapiens, UniProt O43251-10, residues 100-194)
# Method: RNA Bind-n-Seq
# Molecule type: RNA
# Sample: in vitro
# Tested at: 365 nM
# Notes: natural RNA segment, single round, ends assumed
# Reference: no-protein control
# Reading: higher = stronger binding
# Construct (chain): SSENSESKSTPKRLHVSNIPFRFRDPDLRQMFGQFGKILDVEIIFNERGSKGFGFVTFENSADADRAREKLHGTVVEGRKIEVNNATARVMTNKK
Strand,RBNS enrichment (R)
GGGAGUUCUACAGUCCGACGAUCUCUACUCGGGAGGCUGAGGCAGGAGAAUUACUUGAACCCAGGAGGCAGAGGCUGCAGUGAGCCGAGAUGGCACCACUGCACUCCAGCUUGUUGACAGAAUGAGACCCUGUUGGAAUUCUCGGGUGCCAA,0.281
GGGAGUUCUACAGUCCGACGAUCCCUUCUCCCGGCCCUCACUAAGCCCCGGCACUUCUAGUGGUCUCACCUGGAGGCAAGAGGGAGGGGACAGAGGCCCUGCCACGUCCCGCUGCCUCCUGCUCUCUGGAGGUUGGAAUUCUCGGGUGCCAA,0.32
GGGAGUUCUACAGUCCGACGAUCCCACGCCAUAUCCUUUGUGGAGCAUAGUGGGUUAUCUAUCUGUCUGUCUGUCUAUGUAUCUGUCUAUCUAUCUAUAUAUAUAUUCAGCUUCUUUACUGCUACCUACACAUUGGAAUUCUCGGGUGCCAA,0.299
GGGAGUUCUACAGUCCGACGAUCGUUCCAGCUAGCUUUAAAAGCUAUACGGUGCUAAUUAGUAAAAUAUUGAGGGCAAUAUUUUACUGCUAGCUUGCAAAAUUAUAAGUGUUUUAAAAAUAAAAUACAUGAAAUGGAAUUCUCGGGUGCCAA,1
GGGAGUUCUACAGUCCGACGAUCGCAGUUAUGUGCCCGCUCUGGUGAUGGCCCCAGCCAGUGAUGCUAGGCCUAAUUGUUCAUCAUCAAGCCGGCGACUCAUGUGGUGCCUGCCCUAGGCGUGGCCUGCGGUCUGGAAUUCUCGGGUGCCAA,1.21
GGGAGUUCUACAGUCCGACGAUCUCUUUUGAUAAAAAGUAACAAAAAUUUAAUGCAGAUCAAAGACCAAGGCUUGUAACCAAAACAAGCAAAAAGAAACUUUAGCUGUUUAACUAUCACCUCUCUAAUUUAAAUGGAAUUCUCGGGUGCCAA,0.553
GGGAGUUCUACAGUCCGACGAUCUCAUCUGCCAUUACUGUUAUUUGCUGAUUUUAUUUUAUUUUGAUGGUAAUAUUCUAUCCUUAUGACACUAUUGCAACCAAAUUGGCUUUACCAUCUUGGCUUUAGUAGGUUGGAAUUCUCGGGUGCCAA,0.564
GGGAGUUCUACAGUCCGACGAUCAUUCCUUAGAAGCAAGGACCUGGUCCAGUGGCGGUGCCUCAGUUCACACUCCCUCUGACGGACGGACGGACGUCAGUGCCCUCUCCCUUCUCCUUGUGAAGCCAUAAGCCUGGAAUUCUCGGGUGCCAA,0.401
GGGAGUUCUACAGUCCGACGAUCACUCUAAGCUGGAGCUCUUGGAAGAGCUCUUCGGUUUCUGAGCAUAAUGCUCCCAUCUCCUGAUUUCUCUGAACAGAAAACAAAAGAGAGAAUGAGGGAAAUUGCUAUUUUGGAAUUCUCGGGUGCCAA,0.596

# A few entries again (study 3):
Strand,E-score
ATCTCTGA,-0.193
GATGCTCA,-0.0285
ATCGGTCA,0.0732
